Assay results gathered from unrelated publications.
Every numbered part comes from another study and shows a few of its results, in no order.

Block 1 — technique: universal PBM; molecule type: double-stranded DNA, one strand shown; matrix: in vitro; tested at: 600 nM; direction: higher = stronger binding
Target: Sal-like protein 4, full length isoform A (SALL4, Homo sapiens, UniProt Q9UJQ4, residues 1-1053)
Chain of UniProt Q9UJQ4 (whole entry, looked up): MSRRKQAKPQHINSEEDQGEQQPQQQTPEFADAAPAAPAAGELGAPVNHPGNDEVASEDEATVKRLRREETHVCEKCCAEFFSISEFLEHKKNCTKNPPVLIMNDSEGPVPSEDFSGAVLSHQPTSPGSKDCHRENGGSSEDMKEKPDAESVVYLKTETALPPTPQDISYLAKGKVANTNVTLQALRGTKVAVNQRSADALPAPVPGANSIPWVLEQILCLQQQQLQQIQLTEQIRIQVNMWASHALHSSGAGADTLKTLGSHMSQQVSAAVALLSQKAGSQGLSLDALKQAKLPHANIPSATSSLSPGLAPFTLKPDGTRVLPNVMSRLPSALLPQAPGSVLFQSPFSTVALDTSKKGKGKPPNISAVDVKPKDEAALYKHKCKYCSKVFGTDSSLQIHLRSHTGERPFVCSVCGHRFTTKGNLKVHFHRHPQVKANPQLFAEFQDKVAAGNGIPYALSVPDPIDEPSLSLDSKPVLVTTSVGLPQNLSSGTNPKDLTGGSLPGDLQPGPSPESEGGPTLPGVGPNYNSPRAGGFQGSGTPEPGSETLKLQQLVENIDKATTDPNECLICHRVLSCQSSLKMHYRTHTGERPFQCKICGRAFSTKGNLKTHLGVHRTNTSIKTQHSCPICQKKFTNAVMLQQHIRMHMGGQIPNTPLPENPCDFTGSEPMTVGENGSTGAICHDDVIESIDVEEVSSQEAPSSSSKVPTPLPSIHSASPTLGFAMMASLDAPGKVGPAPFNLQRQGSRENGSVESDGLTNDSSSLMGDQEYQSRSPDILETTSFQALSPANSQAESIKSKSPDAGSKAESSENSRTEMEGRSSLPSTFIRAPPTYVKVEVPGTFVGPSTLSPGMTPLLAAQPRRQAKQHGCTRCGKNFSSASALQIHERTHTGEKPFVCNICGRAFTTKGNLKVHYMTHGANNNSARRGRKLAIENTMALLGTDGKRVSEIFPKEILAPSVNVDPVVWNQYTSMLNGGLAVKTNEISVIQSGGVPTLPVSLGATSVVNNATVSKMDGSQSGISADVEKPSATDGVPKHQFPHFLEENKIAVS
Setting: 8-mer, flanks averaged, mean of replicates
With `CCTCTAAG` the E-score was -0.0396.
With `GGAACATA` the E-score was 0.222.
For `CAACTTCA`, the E-score was 0.0682.
The E-score of `AGCGTGCA` is reported as -0.102.

Block 2 — technique: protein binding microarray; molecule type: double-stranded DNA, one strand shown; matrix: in vitro; tested at: not given; baseline: not given; direction: higher = stronger binding
Target: Histone acetyltransferase KAT6A, winged helix 2, GST fusion (KAT6A, Homo sapiens, UniProt Q92794, residues 85-181)
Setting: 8-mer, flanks averaged, mean of 2 arrays, mostly near background
Residues (chain): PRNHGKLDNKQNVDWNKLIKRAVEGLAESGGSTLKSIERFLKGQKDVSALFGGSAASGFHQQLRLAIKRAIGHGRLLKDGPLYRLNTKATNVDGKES
`ATCCCTGG` gave an E-score of 0.068.
`AGGTTCCA` has an E-score of -0.0976.
For `AAATTTAT`, the E-score was 0.0146.
For `TGACACCA`, the E-score was 0.0408.
The E-score of `GAGACCGA` is reported as -0.00424.
`CAGAATCC` gave an E-score of -0.00213.

Block 3 — technique: aptamer microarray, sandwich; molecule type: DNA with 2'F-ANA; matrix: in vitro; tested at: 200 nM; with: Cy3 exosite-II aptamer, 400 nM; direction: higher = stronger binding
Target: Prothrombin, mature alpha-thrombin (F2, Homo sapiens, UniProt P00734)
Setting: whole 15-mer aptamer, many near background
For `GGTTGGTGTGGTTGG (2'F-ANA at 1 2 3 6 7 8 9 11 13 14 15)`, “mean fluorescence intensity” read 68.9 a.u.
`GGTTGGTGTGGTTGG (2'F-ANA at 4 6 7 8 9 10 11 12 13 14 15)`: “mean fluorescence intensity” 55.9 a.u.
Under “mean fluorescence intensity”, `GGTTGGTGTGGTTGG (2'F-ANA at 2 7 9 13 14)` is recorded as 146 a.u.
`GGTTGGTGTGGTTGG (2'F-ANA at 1 4 5 9 13 15)`: “mean fluorescence intensity” 48.3 a.u.

Mixed results
With `PhoQ, residues 284 288 289 292 302 303 NSMLDC` the fold induction was 11 (PhoP, residues 12 14 15 18 19 SMASL (Escherichia coli, UniProt P23836); Sort-seq, refers to: YFP reporter; E. coli; PhoQ-PhoP variant library, with: 10 µM Mg2+; baseline: high Mg2+ state, higher = stronger signaling).

A few entries again (block 2):
`AGGTTCCA` has an E-score of -0.0976.
For `TGACACCA`, the E-score was 0.0408.
